Published values from different studies.
Each line is one published result; not all experiments were run side by side. Values joined by “and” are separate records of one study, mostly repeats; a detail may differ. ± gives the spread as reported.
IKBKG 2-419 C11A/C76A/C95A/C131A/C167A: IKBKG 2-419 C11A/C76A/C95A/C131A/C167A (Homo sapiens, UniProt Q9Y6K9)
Chain of UniProt Q9Y6K9 (whole entry, unmodified, looked up): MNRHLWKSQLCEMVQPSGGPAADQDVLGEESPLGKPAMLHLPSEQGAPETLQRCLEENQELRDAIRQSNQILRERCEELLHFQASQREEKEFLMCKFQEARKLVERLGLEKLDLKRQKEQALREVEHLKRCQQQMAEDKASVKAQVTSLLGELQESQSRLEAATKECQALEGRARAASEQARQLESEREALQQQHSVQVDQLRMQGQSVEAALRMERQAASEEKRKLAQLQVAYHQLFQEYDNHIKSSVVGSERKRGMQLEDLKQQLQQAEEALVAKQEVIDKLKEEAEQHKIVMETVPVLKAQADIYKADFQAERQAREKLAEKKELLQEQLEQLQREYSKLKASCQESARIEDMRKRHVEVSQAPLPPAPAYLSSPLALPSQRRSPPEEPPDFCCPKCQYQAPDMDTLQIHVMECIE
B1: NUP153 895-1475 (Homo sapiens, UniProt P49790); sequence looked up; chain SNSAASSSFKFGVSSSSSGPSQTLTSTGNFKFGDQGGFKIGVSSDSGSINPMSEGFKFSKPIGDFKFGVSSESKPEEVKKDSKNDNFKFGLSSGLSNPVSLTPFQFGVSNLGQEEKKEELPKSSSAGFSFGTGVINSTPAPANTIVTSENKSSFNLGTIETKSASVAPFTCKTSEAKKEEMPATKGGFSFGNVEPASLPSASVFVLGRTEEKQQEPVTSTSLVFGKKADNEEPKCQPVFSFGNSEQTKDENSSKSTFSFSMTKPSEKESEQPAKATFAFGAQTSTTADQGAAKPVFSFLNNSSSSSSTPATSAGGGIFGSSTSSSNPPVATFVFGQSSNPVSSSAFGNTAESSTSQSLLFSQDSKLATTSSTGTAVTPFVFGPGASSNNTTTSGFGFGATTTSSSAGSSFVFGTGPSAPSASPAFGANQTPTFGQSQGASQPNPPGFGSISSSTALFPTGSQPAPPTFGTVSSSSQPPVFGQQPSQSAFGSGTTPNSSSAFQFGSSTTNFNFTNNSPSGVFTFGANSSTPAASAQPSGSGGFPFNQSPAAFTVGSNGKNVFSSSGTSFSGRKIKTAVRRRK
B2: Scn2a 1080-1203 (UniProt P04775); CK2-phosphorylated; sequence looked up; chain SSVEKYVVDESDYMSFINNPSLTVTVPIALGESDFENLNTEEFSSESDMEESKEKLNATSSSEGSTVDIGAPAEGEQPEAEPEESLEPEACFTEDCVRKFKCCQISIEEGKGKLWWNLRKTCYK
B3: CPT1A 381-469 W452A (Rattus norvegicus, UniProt P32198); Cy3 label; sequence looked up; chain AALTAADRVPWAKCRQTYFARGKNKQSLDAVEKAAFFVTLDESEQGYREEDPEASIDSYAKSLLHGRCFDRAFDKSITFVVFKNSKIGI
B4: IGFL3 24-125 (Homo sapiens, UniProt Q6UXB1); chain GTTDAPVGSGLWLCQPTPRCGNKIYNPSEQCCYDDAILSLKETRRCGSTCTFWPCFELCCPESFGPQQKFLVKLRVLGMKSQCHLSPISRSCTRNRRHVLYP
Chain of UniProt P55899 (whole entry, looked up): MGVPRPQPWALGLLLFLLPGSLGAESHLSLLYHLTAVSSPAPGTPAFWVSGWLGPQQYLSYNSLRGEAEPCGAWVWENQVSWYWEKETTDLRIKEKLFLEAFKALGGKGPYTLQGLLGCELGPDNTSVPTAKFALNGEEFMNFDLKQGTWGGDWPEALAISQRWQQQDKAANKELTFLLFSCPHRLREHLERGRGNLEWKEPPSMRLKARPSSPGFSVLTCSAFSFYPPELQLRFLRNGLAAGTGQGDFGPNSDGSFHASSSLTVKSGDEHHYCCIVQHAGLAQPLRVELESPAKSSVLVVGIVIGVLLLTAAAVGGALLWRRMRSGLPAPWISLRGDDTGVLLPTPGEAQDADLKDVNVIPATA
Chain of UniProt Q14974 (whole entry, unmodified, looked up): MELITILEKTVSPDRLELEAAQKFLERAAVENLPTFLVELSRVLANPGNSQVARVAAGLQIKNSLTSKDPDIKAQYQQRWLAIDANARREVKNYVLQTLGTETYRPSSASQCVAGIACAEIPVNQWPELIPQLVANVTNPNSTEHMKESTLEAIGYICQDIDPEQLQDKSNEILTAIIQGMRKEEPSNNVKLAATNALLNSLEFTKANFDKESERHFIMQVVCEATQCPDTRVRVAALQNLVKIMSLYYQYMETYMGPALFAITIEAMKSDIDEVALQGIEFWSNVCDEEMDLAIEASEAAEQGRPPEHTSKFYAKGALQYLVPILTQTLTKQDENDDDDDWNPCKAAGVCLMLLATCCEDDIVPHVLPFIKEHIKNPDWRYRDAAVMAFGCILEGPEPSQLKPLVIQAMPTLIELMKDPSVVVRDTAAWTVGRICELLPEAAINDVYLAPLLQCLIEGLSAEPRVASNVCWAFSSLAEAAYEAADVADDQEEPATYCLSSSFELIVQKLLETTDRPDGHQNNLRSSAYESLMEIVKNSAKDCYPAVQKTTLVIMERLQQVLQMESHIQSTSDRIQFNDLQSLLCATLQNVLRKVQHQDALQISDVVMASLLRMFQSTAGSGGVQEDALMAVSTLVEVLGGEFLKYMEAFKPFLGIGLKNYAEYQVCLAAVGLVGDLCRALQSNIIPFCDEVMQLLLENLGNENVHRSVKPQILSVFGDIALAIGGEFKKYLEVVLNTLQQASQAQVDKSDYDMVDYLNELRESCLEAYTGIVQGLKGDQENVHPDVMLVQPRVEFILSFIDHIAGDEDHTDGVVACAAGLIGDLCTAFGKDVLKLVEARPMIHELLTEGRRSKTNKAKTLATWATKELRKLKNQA
Chain of UniProt P12710 (whole entry, looked up): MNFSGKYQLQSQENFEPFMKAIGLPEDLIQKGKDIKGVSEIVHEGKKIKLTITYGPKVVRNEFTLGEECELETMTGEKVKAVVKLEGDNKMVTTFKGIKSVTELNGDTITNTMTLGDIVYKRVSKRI
Chain of UniProt Q9H665 (whole entry, looked up): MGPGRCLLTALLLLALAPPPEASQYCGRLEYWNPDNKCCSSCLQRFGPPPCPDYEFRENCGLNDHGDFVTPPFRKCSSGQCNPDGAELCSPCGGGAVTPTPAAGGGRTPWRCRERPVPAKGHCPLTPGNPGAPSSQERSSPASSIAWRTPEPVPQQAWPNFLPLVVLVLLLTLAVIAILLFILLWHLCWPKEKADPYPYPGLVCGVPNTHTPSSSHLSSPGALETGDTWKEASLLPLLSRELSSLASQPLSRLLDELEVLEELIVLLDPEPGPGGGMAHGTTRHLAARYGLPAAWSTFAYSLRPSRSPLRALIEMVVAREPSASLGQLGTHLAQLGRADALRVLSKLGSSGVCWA
Chain of UniProt P54764 (whole entry, looked up): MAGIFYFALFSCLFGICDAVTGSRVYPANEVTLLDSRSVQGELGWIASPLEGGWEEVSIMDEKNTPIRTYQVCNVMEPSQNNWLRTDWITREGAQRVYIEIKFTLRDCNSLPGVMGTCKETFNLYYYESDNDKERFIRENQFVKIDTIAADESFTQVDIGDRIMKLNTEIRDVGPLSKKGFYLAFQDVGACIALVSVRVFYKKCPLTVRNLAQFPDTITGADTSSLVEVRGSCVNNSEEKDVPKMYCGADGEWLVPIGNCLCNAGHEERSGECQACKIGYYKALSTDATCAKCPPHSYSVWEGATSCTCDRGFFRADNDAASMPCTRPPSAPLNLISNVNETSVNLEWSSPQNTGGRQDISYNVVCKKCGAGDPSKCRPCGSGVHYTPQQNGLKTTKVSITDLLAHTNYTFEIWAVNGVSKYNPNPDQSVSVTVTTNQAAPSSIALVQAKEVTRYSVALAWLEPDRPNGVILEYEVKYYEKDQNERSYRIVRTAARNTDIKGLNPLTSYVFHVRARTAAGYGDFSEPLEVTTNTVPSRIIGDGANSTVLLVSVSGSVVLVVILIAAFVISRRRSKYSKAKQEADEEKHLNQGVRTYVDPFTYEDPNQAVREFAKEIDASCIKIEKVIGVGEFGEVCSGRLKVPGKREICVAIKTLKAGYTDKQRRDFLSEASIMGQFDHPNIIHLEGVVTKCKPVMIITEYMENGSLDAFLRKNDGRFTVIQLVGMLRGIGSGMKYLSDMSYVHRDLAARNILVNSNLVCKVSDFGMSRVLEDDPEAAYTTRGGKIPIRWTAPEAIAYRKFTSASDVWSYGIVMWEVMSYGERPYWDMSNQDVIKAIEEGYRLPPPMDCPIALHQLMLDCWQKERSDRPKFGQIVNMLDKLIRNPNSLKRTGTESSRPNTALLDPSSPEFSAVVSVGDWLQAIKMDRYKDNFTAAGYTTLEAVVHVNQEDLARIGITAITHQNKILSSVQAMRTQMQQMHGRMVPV

Molecule = B1 (NUP153 895-1475); partner = KPNB1 I178A/F217A/Y255A/I263R/L612D/F688A (Homo sapiens, UniProt Q14974); assay = ELISA; conditions = apparent; Kd = 83.2 ± 9.1 nM
Molecule = B2 (Scn2a 1080-1203); partner = ANK2 1-957 (Homo sapiens, UniProt Q01484-2); assay = SPR; conditions = pH 7.4, 25 °C, NaCl 150 mM; Kd = 1.2 nM
Molecule = tocilizumab IgG1, C-terminal lysine removed; partner = FCGRT (Homo sapiens, UniProt P55899); assay = BLI, SPR; Kd = 25.8 nM and 25.9 nM and 25 nM and 26.4 nM and 28.6 nM and 14.6 nM
Molecule = PAKKSEELVAEAHNLSTLLENAIQATVREQDQSFTALDWSWLQTE (IKBKB 701-745 C716S/D725A (Homo sapiens, UniProt O14920); sequence looked up); partner = IKBKG 2-419 C11A/C76A/C95A/C131A/C167A; assay = competition with labelled peptide, fluorescence polarisation; conditions = pH 7.4; Kd = 5.9 nM
Molecule = KYLPYWPVLSSL (KYL peptide 12-mer); partner = EPHA4 29-209 (Homo sapiens, UniProt P54764); assay = ITC; test system = peptide; Kd = 1300 nM
Molecule = PAKKSEELVAEAHNLSTLLENAIQDTAREQDQSFTALDWSWLQTE (IKBKB 701-745 C716S/V727A (Homo sapiens, UniProt O14920); sequence looked up); partner = IKBKG 2-419 C11A/C76A/C95A/C131A/C167A; assay = competition with labelled peptide, fluorescence polarisation; conditions = pH 7.4; Kd = 8.7 nM
Molecule = B3 (CPT1A 381-469 W452A); partner = Fabp1, Cy5 label (Mus musculus, UniProt P12710); assay = FRET; conditions = 24 °C; Kd = 28 nM
Molecule = LRPAP1 fragment (Homo sapiens); partner = LDLR LA5 module (Homo sapiens); assay = NMR titration; conditions = pH 7.45, 33 °C, NaCl 150 mM, together with: CaCl2 10 mM; Kd = 670000 ± 26000 nM
Molecule = B4 (IGFL3 24-125); partner = IGFLR1 23-159 (Homo sapiens, UniProt Q9H665); assay = SPR; conditions = pH 7.4, 25 °C, NaCl 0.15 M; Kd = 0.085 nM

Some of these lines once more:
Molecule = tocilizumab IgG1, C-terminal lysine removed; partner = FCGRT (Homo sapiens, UniProt P55899); assay = BLI, SPR; Kd = 25.8 nM and 25.9 nM and 25 nM and 26.4 nM and 28.6 nM and 14.6 nM
